# Results from different studies.
# Lines come from different studies, so protocols differ. ± marks the error that the study gave.
SMILES,tested on,test,system,setting,endpoint,result
COC(=O)C1=CO[C@@H](OC(C)=O)[C@@H]2C(Cn3cc(CCCO)nn3)=CC[C@H]12,SK-N-SH,"neuroprotection, MTT",,"0.15 µM, 24 h, together with: 250 µM H2O2",viability,72.7 ± 0.4%
NC[C@@H]1O[C@H](O[C@H]2[C@@H](O)[C@H](O[C@@H]3[C@@H](O)[C@H](N)C[C@H](N)[C@H]3O[C@H]3O[C@H](CO)[C@@H](OCCCO)[C@H](O)[C@H]3N)O[C@@H]2CO)[C@H](N)[C@@H](O)[C@@H]1O,ribosome with mitochondrial A1555G A site,"luciferase translation, cell-free translation",,,IC50,> 700 µg/mL
COC(=O)C1=CO[C@@H](O)[C@@H]2C(Cn3cc(C4(O)CCCC4)nn3)=CC[C@H]12,SK-N-SH,"neuroprotection, MTT",,"0.15 µM, 24 h, together with: 250 µM H2O2",viability,79.9%
CC[C@@H]1CN2CCc3c([nH]c4cccc(OC)c34)[C@@H]2C[C@@H]1/C(=C\OC)C(=O)OC,rabbit anti-mitragynine polyclonal IgG,competitive indirect ELISA,,salt 1.67 M,IC50,4.89 µg/mL
Oc1ccc(Cl)cc1-c1nc2c(C(F)(F)F)cc(C(F)(F)F)cc2[nH]1,NF-κB (human),"reporter gene, inhibitor",HEK293 NF-κB luciferase reporter,together with: TNFα,IC50,2290 ± 1550 nM
CC(C)C[C@@H](/C=C/S(C)(=O)=O)NC(=O)[C@H](CC(C)C)NC(=O)[C@@H](NC(=O)N[C@H](C(=O)NCc1ccccc1)C(C)C)C(C)C,rabbit 26S proteasome beta5,chymotrypsin-like activity,,"30 min, 37 °C, together with: Suc-LLVY-AMC",IC50,640 nM
CCCCCO[C@H]1[C@H](O)[C@@H](N)[C@@H](O[C@H]2[C@H](O[C@@H]3O[C@H](CO)[C@@H](O[C@H]4O[C@@H](CN)[C@@H](O)[C@H](O)[C@H]4N)[C@H]3O)[C@@H](O)[C@H](N)C[C@@H]2N)O[C@@H]1CO,ribosome with mitochondrial A site,"luciferase translation, cell-free translation",,,IC50,109 ± 6.73 µg/mL
CC[C@H](C)[C@@H]1NC(=O)[C@H](Cc2ccc(O)cc2)NC(=O)[C@@H](N)CSSC[C@@H](C(=O)N2CCC[C@H]2C(=O)N2CCC[C@H]2C(=O)NCC(N)=O)NC(=O)[C@H](CC(N)=O)NC(=O)[C@H](CCC(N)=O)NC1=O,oxytocin receptor (Callithrix jacchus),membrane hyperpolarisation,CHO cells,,IC50,1.49 nM
CCCCCCCCC(=O)NCc1ccc(O)c(OC)c1,mouse mAb 1-D6,"antibody binding, indirect competitive ELISA",,,IC50,2.13 µg/mL
CO[C@H]1[C@H](O)[C@@H](N)[C@@H](O[C@H]2[C@H](O[C@@H]3O[C@H](CO)[C@@H](O[C@H]4O[C@@H](CN)[C@@H](O)[C@H](O)[C@H]4N)[C@H]3O)[C@@H](O)[C@H](N)C[C@@H]2N)O[C@@H]1CO,ribosome with mitochondrial A site,"luciferase translation, cell-free translation",,,IC50,107 ± 24.3 µg/mL
CCC(=O)CCCCC[C@@H]1NC(=O)[C@H]2CCCCN2C(=O)[C@H]([C@@H](C)CC)NC(=O)[C@H](Cc2cn(OC)c3ccccc23)NC1=O,"HDAC, human","enzyme activity, inhibitor",HeLa nuclear extract,,IC50,9 nM

# Repeated from above:
SMILES,tested on,test,system,setting,endpoint,result
CC(C)C[C@@H](/C=C/S(C)(=O)=O)NC(=O)[C@H](CC(C)C)NC(=O)[C@@H](NC(=O)N[C@H](C(=O)NCc1ccccc1)C(C)C)C(C)C,rabbit 26S proteasome beta5,chymotrypsin-like activity,,"30 min, 37 °C, together with: Suc-LLVY-AMC",IC50,640 nM
